Published values of several laboratories.
Numbers after ± are the reported error.
FGFR1: Fibroblast growth factor receptor 1 (FGFR1, Homo sapiens, UniProt P11362)
Chain of UniProt P11362 (whole entry, unmodified, looked up): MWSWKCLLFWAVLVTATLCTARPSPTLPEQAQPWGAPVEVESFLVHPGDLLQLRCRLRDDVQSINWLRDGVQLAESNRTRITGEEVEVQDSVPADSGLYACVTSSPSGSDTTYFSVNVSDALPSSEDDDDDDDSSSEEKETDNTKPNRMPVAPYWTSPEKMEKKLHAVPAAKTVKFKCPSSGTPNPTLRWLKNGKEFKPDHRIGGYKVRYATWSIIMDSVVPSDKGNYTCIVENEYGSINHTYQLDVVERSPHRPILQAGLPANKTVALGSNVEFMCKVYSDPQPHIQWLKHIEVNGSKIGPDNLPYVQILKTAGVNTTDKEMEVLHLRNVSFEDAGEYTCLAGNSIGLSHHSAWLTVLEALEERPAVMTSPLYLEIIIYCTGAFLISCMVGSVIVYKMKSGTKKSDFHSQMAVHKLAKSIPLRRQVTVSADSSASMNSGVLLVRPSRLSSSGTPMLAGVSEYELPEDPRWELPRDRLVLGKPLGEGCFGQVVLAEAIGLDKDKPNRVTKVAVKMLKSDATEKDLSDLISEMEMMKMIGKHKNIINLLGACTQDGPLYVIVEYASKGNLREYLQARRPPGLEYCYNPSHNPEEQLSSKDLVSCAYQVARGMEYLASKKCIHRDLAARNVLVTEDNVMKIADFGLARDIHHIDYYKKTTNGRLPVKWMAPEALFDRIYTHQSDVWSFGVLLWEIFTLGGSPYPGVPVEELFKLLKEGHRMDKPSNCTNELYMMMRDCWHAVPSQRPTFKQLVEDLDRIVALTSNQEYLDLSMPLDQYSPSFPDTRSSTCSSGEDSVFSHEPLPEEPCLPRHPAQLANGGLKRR

`O=C1NC(=O)/C(=C/c2ccc(-c3ccc(F)cc3O)o2)S1` gave a remaining activity of 42% (FGFR1; enzyme activity; 10 µM).
`CN1CCN(c2ccc(/C=C3/C(=O)Nc4ccc(-c5ccc6cc(O)ccc6c5)cc43)cc2)CC1` — result for “binding free energy”: -11.1 kcal/mol (FGFR1; enzyme activity, Z'-LYTE kinase).
`CC#CC(=O)N1CCC[C@H]1c1nc(-c2ccc(C(=O)Nc3ccccn3)cc2)c2c(N)nccn12` has a remaining activity of 103 ± 1.5% (FGFR1; kinase activity, inhibitor, HotSpot radiometric; 100 nM, added: ATP 10 µM).
`C=CC(=O)N1CCC(COCC(=O)N2CCN(c3nc(-c4cnc(N)nc4C(F)F)nc(N4CCOC[C@@H]4C)n3)CC2)CC1` gave a remaining binding of 100% (FGFR1; KINOMEscan; 1 µM).
The remaining activity of `COc1ccc(F)cc1C(=O)NCc1ccc(-c2nn([C@@H](C)C(F)(F)F)c(N)c2C(N)=O)cc1` is reported as 92.7 ± 1.2% (FGFR1; kinase activity, inhibitor, HotSpot radiometric; 100 nM, added: ATP 10 µM).
With `COc1cc(F)ccc1-c1ncnc(Nc2cccc(C[S@](C)(=N)=O)c2)n1` the remaining activity was 95% (FGFR1; kinase activity; 10 µM, added: 10 µM ATP).
The inhibition of `C#Cc1cc(-c2cc(Nc3nc(N[C@@H](C)c4ccc(F)cn4)ncc3Cl)n[nH]2)ccc1C=O` is reported as 23.5% (FGFR1; enzyme activity, inhibitor; 0.2 µM).
The inhibition of `[2H]c1cc(C)c(NC(=O)c2cnc(Nc3cc(N4CCCCC4)nc(C)n3)s2)c(Cl)c1` is reported as under 30% (FGFR1; 0.01 µM).
`COc1cc(-c2cncc3c2CN(C)Cc2cc(N4CCNCC4)ccc2-3)cc(OC)c1OC` gave a remaining activity of 91% (FGFR1 (Homo sapiens, UniProt P11362, V561M); kinase activity; 1 µM, added: ATP 10 µM; baseline: DMSO control).
For `O=C(NC1CCC1)c1ccc2nc(-c3cccc(NS(=O)(=O)NCCN4CCCCC4)c3)cn2c1`, the remaining activity was 100% (FGFR1; enzyme activity; 10 µM).
With `C=CC(=O)N1CCC[C@@H](n2nc(-c3ccc(Oc4ccccc4)cc3)c3c(N)ncnc32)C1` the remaining activity was 106% (FGFR1; 1 µM).
The remaining activity of `C=CC(=O)N1CCC([C@@H]2CCNc3c(C(N)=O)c(-c4ccc(Oc5ccccc5)cc4)nn32)CC1` is reported as 102 ± 1.4% (FGFR1; kinase activity, inhibitor, HotSpot radiometric; 100 nM, added: ATP 10 µM).
`c1cnc2ccc(Nc3nc(NC4CC4)c4nc[nH]c4n3)cc2c1` gave a remaining activity of 45% (FGFR1; kinase activity, inhibitor, SelectScreen kinase profiling; 1 µM; baseline: control).

For quick reference, copied from above:
The inhibition of `[2H]c1cc(C)c(NC(=O)c2cnc(Nc3cc(N4CCCCC4)nc(C)n3)s2)c(Cl)c1` is reported as under 30% (FGFR1; 0.01 µM).
The remaining activity of `COc1ccc(F)cc1C(=O)NCc1ccc(-c2nn([C@@H](C)C(F)(F)F)c(N)c2C(N)=O)cc1` is reported as 92.7 ± 1.2% (FGFR1; kinase activity, inhibitor, HotSpot radiometric; 100 nM, added: ATP 10 µM).
